Published values gathered from unrelated publications.
Numbers after ± are the reported error.

C[C@]12CC[C@H](OC(=O)NC3CCNCC3)C[C@H]1CC[C@@H]1[C@@H]2CC[C@]2(C)[C@@H](c3ccc(=O)oc3)CC[C@]12O — AUC(0-inf) (male Sprague-Dawley rat, plasma; intravenous, 5 mg/kg, single dose): 15200 ng·h/mL
CC(C)[C@H]1NC(=O)C[C@H]2/C=C/CCSSC[C@@H](NC1=O)C(=O)N[C@H](Cc1cccc3ccccc13)C(=O)NCC(=O)O2 — AUC(0-inf) (nude mouse, blood; intravenous, 4 mg/kg): 11.1 ng·h/mL
COc1ccc(F)cc1S(=O)(=O)Nc1cnc2c(c1)C(=O)NCCO2 — AUC(0-inf) (C57BL/6J mice, plasma; oral, 0.3 mg/kg): 123 ± 27 ng·h/mL
CCc1c2c(nc3ccc(OC4OC(C(=O)O)C(O)C(O)C4O)cc13)-c1cc3c(c(=O)n1C2)COC(=O)C3(O)CC (stereo not drawn) — AUC(0-inf) (human patients, plasma; intravenous, 313 mg/m2 of parent drug): 4540 ng·h/mL
CC1(C)C(=O)N(c2ccc(C#N)c(C(F)(F)F)c2)C(=S)N1c1ccc(C(N)=O)c(F)c1 — AUC(0-inf) (human, male, plasma; oral, 160 mg, single dose, after high-fat meal): 270000 ± 40300 ng·h/mL
CC[C@H](C)C(=O)N1CCC(NC(=O)Nc2ccc(OC(F)(F)F)c(F)c2)CC1 — AUC(0-inf) (human, plasma; oral, 8 mg, single dose, healthy volunteers): 3690 ng·h/mL
C[C@@H]1CC[C@H]2[C@@H](C)CO[C@@H]3O[C@@]4(C)CC[C@@H]1[C@]32OO4 — AUC(0-inf) (male Sprague-Dawley rat, plasma; intravenous, 5 mg/kg): 605 ng·h/mL
O=c1cc(-c2ccccc2)oc2c(Br)c(O)c(O)c(O)c12 — AUC(0-inf) (C57BL/6 mouse, plasma; intravenous, 10 mg/kg, single dose): 3210 ng·h/mL
CC(C)C[C@@H](N)C(=O)NCC(=O)N[C@H](C)C(=O)N[C@H](CO)C(=O)N[C@H](Cc1c[nH]c2ccccc12)C(=O)N[C@H](Cc1c[nH]cn1)C(=O)N[C@H](CCCNC(=N)N)C(=O)N1CCC[C@@H]1C(=O)N[C@H](CC(=O)O)C(=O)N[C@H](CCCCN)C(=O)N[C@H](CS)C(=O)N[C@H](CS)C(=O)N[C@H](CC(C)C)C(=O)NCC(=O)N[C@H](Cc1ccc(O)cc1)C(=O)N[C@H](CCC(N)=O)C(=O)N[C@H](CCCCN)C(=O)N[C@H](CCCNC(=N)N)C(=O)N1CCC[C@@H]1C(=O)N[C@H](CC(C)C)C(=O)N1CCC[C@@H]1C(N)=O — AUC(0-inf) (male Sprague-Dawley rat, plasma; subcutaneous, 10 mg/kg, single dose): 35600 ng·h/mL

Some of these lines once more:
CC[C@H](C)C(=O)N1CCC(NC(=O)Nc2ccc(OC(F)(F)F)c(F)c2)CC1 — AUC(0-inf) (human, plasma; oral, 8 mg, single dose, healthy volunteers): 3690 ng·h/mL
